Published values of several laboratories.
Every numbered part comes from another study and shows a few of its results, in no order. Positions count from the first letter of the parent shown.

Sample 1
Target: UBE2T UBC core domain (UniProt Q9NPD8)
Technique: yeast two-hybrid
Matrix: yeast
Notes: mostly zero background
Reference: not given
Reading: higher = stronger interaction
B1: PHF7 RING domain (UniProt Q9BWX1); chain IQHGHVGEESCILCCEDLSQQSVENIQSPCCSQAIYHRKCIQKYAHTSAKHFFKCPQCNNRKEFPQEML
B2: RNF43 RING domain (UniProt Q68DV7); chain SGSSCSSAPVCAICLEEFSEGQELRVISCLHEFHRNCVDPWLHQHRTCPLCMFNITEGDSFS
B3: RNF112 RING domain (UniProt Q9ULX5); chain QPMAPRELPTCSICLERLRDPISLDCGHDFCIRCFSTHRLPGCEPPCCPECRKICKQKRGLR
B4: RNF4 RING domain (UniProt P78317); chain TGLRPSGTVSCPICMDGYSEIVQNGRLIVSTECGHVFCSQCLRDSLKNANTCPTCRKKINHKRYHP
B5: RNF175 RING domain (UniProt Q8N4F7); chain LPTRSLSDNICAVCGQKIIVELDEEGLIENTYQLSCNHVFHEFCIRGWCIVGKKQTCPYCKEKVDLKRMIS
B6: TRIM3 RING domain (UniProt O75382); chain VQPMDKQFLVCSICLDRYQCPKVLPCLHTFCERCLQNYIPAQSLTLSCPVCRQTSILPEQGV
B7: RFPL2 RING domain (UniProt O75678); chain MAALFQEASSCPVCSDYLEKPMSLECGCAVCLKCINSLQKEPHGEDLLCCCSSMVSRKNKIRR
B8: TRIM10 RING domain (UniProt Q9UDY6); chain SVTSLADEVNCPICQGTLREPVTIDCGHNFCRACLTRYCEIPGPDLEESPTCPLCKEPFRPGSFRP
B9: UBE4A RING domain (UniProt Q14139); chain LQQQEEETYADACDEFLDPIMSTLMCDPVVLPSSRVTVDRSTIARHLLSDQTDPFNRSPLTMDQIRPNTELKEKIQRWLAERKQQKEQLE
Residues (chain): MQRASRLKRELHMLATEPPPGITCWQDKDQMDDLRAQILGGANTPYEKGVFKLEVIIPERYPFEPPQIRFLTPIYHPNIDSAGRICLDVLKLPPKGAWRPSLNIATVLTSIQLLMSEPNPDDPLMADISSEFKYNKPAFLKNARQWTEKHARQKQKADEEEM
For `B1 (PHF7 RING domain)`, “lacZ reporter activity” read 0.
Under “lacZ reporter activity”, `B2 (RNF43 RING domain)` is recorded as 0.
`FLKKLEQSFMCVCCQELVYQPVTTECFHNVCKDCLQRSFKAQVFSCPACRHDLGQNYIMI (UHRF2 RING domain (UniProt Q96PU4))` — result for “lacZ reporter activity”: 0.
`B3 (RNF112 RING domain)`: “lacZ reporter activity” 0.
Under “lacZ reporter activity”, `B4 (RNF4 RING domain)` is recorded as 3290.
`ISNDSETLEECMVCSDMKRDTLFGPCGHIATCSLCSPRVKKCLICKEQVQSRTKIE (MIB1 RING domain (UniProt Q86YT6))` — result for “lacZ reporter activity”: 0.
`B5 (RNF175 RING domain)`: “lacZ reporter activity” 0.
Under “lacZ reporter activity”, `B6 (TRIM3 RING domain)` is recorded as 0.
For `B7 (RFPL2 RING domain)`, “lacZ reporter activity” read 0.
`B8 (TRIM10 RING domain)` — result for “lacZ reporter activity”: 0.
For `B9 (UBE4A RING domain)`, “lacZ reporter activity” read 0.

Sample 2
Target: Interferon regulatory factor 5, full length, phosphomimetic (IRF5, Homo sapiens, UniProt Q13568-2, residues 1-514, S451D/S453D/S456D/S462D)
Technique: protein-binding microarray
Molecule type: double-stranded DNA, one strand shown
Matrix: in vitro
Concentration: 940 nM top
Notes: 60-bp whole probe
With: salmon DNA 0.4 mg/ml
Reference: random background probes
Reading: higher = stronger binding
All sequences stand within: GCCTAGCAC … GTCTTGATTCGCTTGACGCTGCTG
For `ATGCCTTTCGTCAAGAAGACGTGCTAG`, “fitted relative affinity” read 0.379 z-score.
`GACGATTTCGGGGATCGAGACGTGCTA` — result for “fitted relative affinity”: 0.761 z-score.
`TCACCTCTGCTCCTCTTACTGTGCTAG` — result for “fitted relative affinity”: 0.909 z-score.
`AGATTTTTCTCAACCGTTGTGTGCTAG`: “fitted relative affinity” 0.414 z-score.
For `GACGATTTCAGTCTGGAGACGTGCTAG`, “fitted relative affinity” read 0.0426 z-score.
Under “fitted relative affinity”, `GACGGTTTCCTCCTGCTGACGTGCTAG` is recorded as 1.29 z-score.
For `TTAGATTTCGGACTGGATTAGTGCTAG`, “fitted relative affinity” read 0.509 z-score.
`TTAGGTTTCGGTATCGGTCAGTGCTAG`: “fitted relative affinity” 15.6 z-score.
`TTAGGTTTCGGGACCGGGTTAGTGCTA` — result for “fitted relative affinity”: 9.28 z-score.
`TTAGGTATCGGGTAGCGGTTAGTGCTA`: “fitted relative affinity” 6.46 z-score.
For `TTAGATATCCGTTTCGATTAGTGCTAG`, “fitted relative affinity” read 3.1 z-score.
Under “fitted relative affinity”, `TTAGGTATCGGGACTAGGTTAGTGCTA` is recorded as 3.63 z-score.
`GACGGTATCGGGACTGTGGACGTGCTA` — result for “fitted relative affinity”: 2.9 z-score.
For `GACGAACTGAGTCGCGAGACGTGCTAG`, “fitted relative affinity” read -0.629 z-score.
`TTAGATTTCGAGACTGGATTAGTGCTA` — result for “fitted relative affinity”: 0.785 z-score.
Under “fitted relative affinity”, `TTAGAGCTCAGTCTCGATTAGTGCTAG` is recorded as 2.75 z-score.
For `GTACCACTCCAGTTCTGGGAGTGCTAG`, “fitted relative affinity” read 0.499 z-score.
`GACGATTGCAGTATCGAGACGTGCTAG`: “fitted relative affinity” 1.34 z-score.
`GACGATTTCGGGTATCTAGACGTGCTA` — result for “fitted relative affinity”: 0.745 z-score.

Sample 3
Target: CCND2, cyclin fold, Cln2 fusion (human)
Technique: yeast growth competition, sequencing
Matrix: yeast
Notes: weak parent motif
Reference: not given
Reading: higher = stronger binding
Starting sequence: SCAPER docking peptide (human); SNARRSLNFGGST
`SNARRSLNFCGST [G10C]` — result for “normalised enrichment score”: 0.126.
For `SNARRSLNFDGST [G10D]`, “normalised enrichment score” read 0.207.
For `SNARRSLIFGGST [N8I]`, “normalised enrichment score” read 0.726.
Under “normalised enrichment score”, `SNARPSLNFGGST [R5P]` is recorded as 0.148.
`SNARRSLNFGGSW [T13W]` — result for “normalised enrichment score”: 0.356.
For `SNARRSLNFYGST [G10Y]`, “normalised enrichment score” read 0.375.
`MNARRSLNFGGST [S1M]` — result for “normalised enrichment score”: 0.488.
`SNARYSLNFGGST [R5Y]` — result for “normalised enrichment score”: 0.15.
`SNARRSLNFGVST [G11V]`: “normalised enrichment score” 0.749.
Under “normalised enrichment score”, `SNARRSLFFGGST [N8F]` is recorded as 0.176.
For `SNARRTLNFGGST [S6T]`, “normalised enrichment score” read 0.399.
`SNARRSLNFEGST [G10E]`: “normalised enrichment score” 0.698.
For `SNARWSLNFGGST [R5W]`, “normalised enrichment score” read 0.325.
For `SNARRSPNFGGST [L7P]`, “normalised enrichment score” read 0.337.
Under “normalised enrichment score”, `SNMRRSLNFGGST [A3M]` is recorded as 0.5.
`SNARRSLNFGGSM [T13M]` — result for “normalised enrichment score”: 0.25.
Under “normalised enrichment score”, `SNARRSLNFGGMT [S12M]` is recorded as -0.0726.
`SNQRRSLNFGGST [A3Q]`: “normalised enrichment score” -0.491.
`SNARRSLNFGKST [G11K]` — result for “normalised enrichment score”: 0.394.
`SNAMRSLNFGGST [R4M]` — result for “normalised enrichment score”: 0.123.
Under “normalised enrichment score”, `SNARRSLHFGGST [N8H]` is recorded as 0.48.
Under “normalised enrichment score”, `FNARRSLNFGGST [S1F]` is recorded as 0.977.
`SNARRSLNFGSST [G11S]` — result for “normalised enrichment score”: 0.239.
Under “normalised enrichment score”, `SNTRRSLNFGGST [A3T]` is recorded as 0.272.

Sample 4
Target: PABPC1L2, full length, GST fusion (mouse, UniProt A0ABA7IW68)
Technique: RNAcompete
Molecule type: RNA
Matrix: in vitro
Concentration: 20 nM
Notes: 7-mer, probes averaged, single round
Reference: mean of 7-mers
Reading: higher = stronger binding
Residues (chain): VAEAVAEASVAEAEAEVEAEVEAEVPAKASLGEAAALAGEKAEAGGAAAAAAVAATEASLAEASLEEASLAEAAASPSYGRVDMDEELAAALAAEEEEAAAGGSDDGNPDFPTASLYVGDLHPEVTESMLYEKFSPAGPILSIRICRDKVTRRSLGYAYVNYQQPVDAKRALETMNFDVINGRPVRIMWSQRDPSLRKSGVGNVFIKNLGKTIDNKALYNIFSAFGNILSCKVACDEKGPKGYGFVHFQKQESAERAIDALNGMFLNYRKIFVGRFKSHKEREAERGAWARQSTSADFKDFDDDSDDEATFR
`UCUAGGA` gave a 7-mer Z-score of -0.112.
For `GGCCGGA`, the 7-mer Z-score was 0.363.
`AGUGAUG` has a 7-mer Z-score of -0.244.
The 7-mer Z-score of `CCGAAAU` is reported as 0.0334.
`CUGCUUA` gave a 7-mer Z-score of -0.36.
`AAAAAAG` gave a 7-mer Z-score of 23.8.
For `CCUCUCG`, the 7-mer Z-score was -0.315.
With `GCCAAAC` the 7-mer Z-score was 0.274.
`CAGUCGG` gave a 7-mer Z-score of -0.0899.
For `CCCGUUC`, the 7-mer Z-score was -0.489.
For `AUAACUC`, the 7-mer Z-score was -0.17.
The 7-mer Z-score of `ACGACAG` is reported as 0.138.
The 7-mer Z-score of `AGUCUCG` is reported as -0.215.
With `CUUCUGC` the 7-mer Z-score was -0.315.
`CCCGAGA` has a 7-mer Z-score of -0.179.
With `GUAUUAG` the 7-mer Z-score was -0.199.
The 7-mer Z-score of `CUGGAGU` is reported as -0.17.
With `CAUCCGC` the 7-mer Z-score was -0.416.
With `CAUGAGG` the 7-mer Z-score was 0.113.
